Measured values pooled from the literature.
Parts stem from different laboratories: compare values within a part only. Changes are numbered by the printed parent chain.

Study 1
Target: Fragile X messenger ribonucleoprotein 1, C-terminal low-complexity region (Fmr1, Mus musculus, UniProt P35922)
Technique: RNA Bind-n-Seq
Molecule type: RNA
Matrix: in vitro
Concentration: 200 nM
Setting: whole 134-nt RNA, ends assumed
Together with: 150 mM KCl
Baseline: input library
Reading: higher = stronger binding
Constant ends, left off below: GGGAGUUCUACAGUCCGACGAUC … UGGAAUUCUCGGGUGUCAAGG
Strand	log2 enrichment
GCAGGAAGUCAAAACAAAUGGAAAUGCUUCGGAUAGUGGCAGGGGUGGGGGUUGCUAAGGAAAGGGUGGGAUGGGAGUGGGUAAAGAGUU	0.245
AGUCCUGUGCUACACAUCGUAUGUACCGAAUCGGGGAAAGGGGUUUUUGGGGAGGGGAAAGUAUUAUGUUACGCCGUUCGGAUCUGCACU	0.883
UCCUGUGCUACACAUCGUAUGUACCGAAUCGGGUUUUUGGGUUUUUGGGAAAAAAAGGGAAAGUAUUAUGUUACGCCGUUCGGAUCUGCA	-0.113
AGUCCUGUGCUACACAUCGUAUGUACCGAAUCGGGGCCCCGGCCCCGGGCCCCGGGGAAAGUAUUAUGUUACGCCGUUCGGAUCUGCACU	-0.909
UCCUGUGCUACACAUCGUAUGUACCGAAUCGGGAAAAAAGGGAAAAAAGGAAAAAAGGGGAAAGUAUUAUGUUACGCCGUUCGGAUCUGC	-0.431
UCCUCAAGUCCUGUGCUACACAUCGUAUGUACCGAAUCGGGCGGCGGGCGGGAAAGUAUUAUGUUACGCCGUUCGGAUCUGCACUUCCAG	0.758
CUCAAGUCCUGUGCUACACAUCGUAUGUACCGAAUCGGGAAGGGAAGGAAGGGGAAAGUAUUAUGUUACGCCGUUCGGAUCUGCACUUCC	0.766
ACCAUGCAGGUGGGCAUCUUUGGGAAGUGGGGCAAGGGGGGGAUAGGGAGGGGGGUAACACUUUGGGAACAGGUGGUCCCAGGUAGUUUC	0.593
UGGGAGGUGGAUUUUGUUUGUUUUUUUAGCUCAUUUCCAGGGGUGGGAAUUUUUUUUUAAUAUGUGUCAUGAAUAAAGUUGUUUUUGAAA	0.39
UGCUGGAGGCAAAAAAUGCCAGCCUGGCGUCGUCCAACAACGACUUGCAGGUGGCCGAGGAGCAGUACCAGAGGCUUAUGGCCAAGGUAG	-2.05

Study 2
Target: CCNA1, cyclin fold, Cln2 fusion (human)
Technique: yeast growth competition, sequencing
Matrix: yeast
Setting: weak parent motif
Baseline: not given
Reading: higher = stronger binding
Starting sequence: ASZ1 docking peptide (human); GFGFLLFICKLTF; partner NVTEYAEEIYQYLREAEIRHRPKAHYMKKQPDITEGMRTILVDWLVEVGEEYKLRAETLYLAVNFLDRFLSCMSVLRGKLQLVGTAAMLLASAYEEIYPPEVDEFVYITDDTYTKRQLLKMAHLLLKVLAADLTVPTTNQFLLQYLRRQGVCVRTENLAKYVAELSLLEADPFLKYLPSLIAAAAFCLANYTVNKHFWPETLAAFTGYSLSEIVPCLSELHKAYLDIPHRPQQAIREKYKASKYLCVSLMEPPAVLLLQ
Substitution	normalised enrichment score
GFGFLLFICALTF [K10A]	0.659
GFAFLLFICKLTF [G3A]	0.211
GFGFALFICKLTF [L5A]	-0.402
GFGFLLFACKLTF [I8A]	-0.617
GFGFLLFICKATF [L11A]	-0.531
GFGFLLFICKLAF [T12A]	-0.217

Study 3
Target: Histone acetyltransferase KAT6A, winged helix 2, GST fusion (KAT6A, Homo sapiens, UniProt Q92794, residues 85-181)
Technique: protein binding microarray
Molecule type: double-stranded DNA, one strand shown
Matrix: in vitro
Concentration: not given
Setting: 8-mer, flanks averaged, mean of 2 arrays, mostly near background
Baseline: not given
Reading: higher = stronger binding
Residues (chain): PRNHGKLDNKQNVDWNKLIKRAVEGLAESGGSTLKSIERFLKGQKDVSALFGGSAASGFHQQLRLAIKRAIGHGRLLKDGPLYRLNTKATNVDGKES
Strand	E-score
ACGAATCA	0.0806
CCCAGCGC	0.148
CAGTGCAA	0.0429
CAGTCATA	-0.166
GCCTCACA	0.0705
AGAAGACT	-0.265
AAGTGTCT	-0.0903
ATTCTAAA	0.195
AAATGCTG	0.0634
AGGTATTG	-0.0905
AAGCGCCA	0.00523
AACCGTAA	-0.226

Mixed results
Substance	target	test	system	conditions	how to read	measurement	value
PhoQ, residues 284 288 289 292 302 303 NLCILV	PhoP, residues 12 14 15 18 19 GQAIL (Escherichia coli, UniProt P23836)	Sort-seq, item: YFP reporter	E. coli	PhoQ-PhoP variant library, together with: 10 µM Mg2+	baseline: high Mg2+ state, higher = stronger signaling	fold induction	23.3
